{"data": "Measured values from different studies", "UniProt P34972, sequence (whole entry, looked up)": "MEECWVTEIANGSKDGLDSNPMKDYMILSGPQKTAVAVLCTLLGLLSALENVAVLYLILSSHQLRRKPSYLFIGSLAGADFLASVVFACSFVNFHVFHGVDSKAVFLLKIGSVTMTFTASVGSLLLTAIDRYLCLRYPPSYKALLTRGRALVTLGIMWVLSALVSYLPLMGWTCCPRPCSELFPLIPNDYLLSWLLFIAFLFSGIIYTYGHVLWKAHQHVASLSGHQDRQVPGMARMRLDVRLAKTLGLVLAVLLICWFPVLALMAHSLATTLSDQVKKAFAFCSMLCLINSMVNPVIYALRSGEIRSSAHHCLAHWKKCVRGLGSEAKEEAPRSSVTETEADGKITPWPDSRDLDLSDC", "UniProt Q13546, sequence (whole entry, looked up)": "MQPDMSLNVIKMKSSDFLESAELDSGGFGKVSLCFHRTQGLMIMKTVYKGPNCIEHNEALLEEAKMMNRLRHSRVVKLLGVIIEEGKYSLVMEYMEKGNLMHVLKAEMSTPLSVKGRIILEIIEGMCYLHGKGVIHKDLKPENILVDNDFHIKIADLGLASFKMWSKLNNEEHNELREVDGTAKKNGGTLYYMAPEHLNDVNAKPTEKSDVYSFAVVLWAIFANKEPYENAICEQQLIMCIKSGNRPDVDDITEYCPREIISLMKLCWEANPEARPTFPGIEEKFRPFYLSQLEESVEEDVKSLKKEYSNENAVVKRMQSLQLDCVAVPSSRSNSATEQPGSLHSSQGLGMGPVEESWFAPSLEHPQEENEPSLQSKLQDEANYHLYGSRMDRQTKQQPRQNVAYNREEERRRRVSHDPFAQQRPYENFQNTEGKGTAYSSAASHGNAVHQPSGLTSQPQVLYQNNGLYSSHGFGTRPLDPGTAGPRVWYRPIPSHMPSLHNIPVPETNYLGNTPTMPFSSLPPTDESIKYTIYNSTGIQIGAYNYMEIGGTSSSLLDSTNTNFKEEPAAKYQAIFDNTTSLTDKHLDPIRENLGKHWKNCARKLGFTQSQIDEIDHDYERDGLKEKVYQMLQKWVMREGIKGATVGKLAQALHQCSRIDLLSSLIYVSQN", "UniProt P21728, sequence (whole entry, looked up)": "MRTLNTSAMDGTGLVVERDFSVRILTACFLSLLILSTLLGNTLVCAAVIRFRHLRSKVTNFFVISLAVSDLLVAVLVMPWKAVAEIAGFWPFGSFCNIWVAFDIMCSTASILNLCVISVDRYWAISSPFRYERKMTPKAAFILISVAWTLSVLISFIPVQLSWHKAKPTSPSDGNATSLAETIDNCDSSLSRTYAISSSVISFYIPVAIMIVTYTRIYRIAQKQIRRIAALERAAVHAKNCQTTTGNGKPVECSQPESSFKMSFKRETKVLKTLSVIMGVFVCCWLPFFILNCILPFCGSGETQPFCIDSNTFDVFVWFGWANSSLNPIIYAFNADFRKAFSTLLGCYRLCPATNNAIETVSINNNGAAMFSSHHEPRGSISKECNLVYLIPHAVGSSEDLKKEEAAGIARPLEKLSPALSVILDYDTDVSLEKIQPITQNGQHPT", "UniProt Q92831, sequence (whole entry, unmodified, looked up)": "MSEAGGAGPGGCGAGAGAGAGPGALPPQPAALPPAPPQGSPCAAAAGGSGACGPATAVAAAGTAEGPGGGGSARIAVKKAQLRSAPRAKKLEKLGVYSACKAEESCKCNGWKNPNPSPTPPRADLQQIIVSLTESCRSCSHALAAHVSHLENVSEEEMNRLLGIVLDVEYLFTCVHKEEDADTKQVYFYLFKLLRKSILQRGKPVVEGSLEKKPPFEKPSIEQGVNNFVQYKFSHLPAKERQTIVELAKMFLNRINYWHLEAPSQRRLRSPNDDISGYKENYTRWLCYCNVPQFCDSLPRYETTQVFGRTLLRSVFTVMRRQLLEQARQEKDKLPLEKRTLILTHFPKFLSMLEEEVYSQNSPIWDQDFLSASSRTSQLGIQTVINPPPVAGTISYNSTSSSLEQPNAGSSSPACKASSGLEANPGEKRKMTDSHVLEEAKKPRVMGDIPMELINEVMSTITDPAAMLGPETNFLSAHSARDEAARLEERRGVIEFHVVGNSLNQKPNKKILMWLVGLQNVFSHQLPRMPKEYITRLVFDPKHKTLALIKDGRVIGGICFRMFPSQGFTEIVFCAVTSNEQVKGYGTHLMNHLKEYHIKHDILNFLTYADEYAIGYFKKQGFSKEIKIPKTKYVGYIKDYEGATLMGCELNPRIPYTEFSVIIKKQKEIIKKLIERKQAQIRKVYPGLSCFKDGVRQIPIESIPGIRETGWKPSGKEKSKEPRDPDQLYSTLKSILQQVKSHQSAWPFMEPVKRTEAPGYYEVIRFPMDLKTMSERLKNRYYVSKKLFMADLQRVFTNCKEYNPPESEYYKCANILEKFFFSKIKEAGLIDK", "UniProt P08913, sequence (whole entry, looked up)": "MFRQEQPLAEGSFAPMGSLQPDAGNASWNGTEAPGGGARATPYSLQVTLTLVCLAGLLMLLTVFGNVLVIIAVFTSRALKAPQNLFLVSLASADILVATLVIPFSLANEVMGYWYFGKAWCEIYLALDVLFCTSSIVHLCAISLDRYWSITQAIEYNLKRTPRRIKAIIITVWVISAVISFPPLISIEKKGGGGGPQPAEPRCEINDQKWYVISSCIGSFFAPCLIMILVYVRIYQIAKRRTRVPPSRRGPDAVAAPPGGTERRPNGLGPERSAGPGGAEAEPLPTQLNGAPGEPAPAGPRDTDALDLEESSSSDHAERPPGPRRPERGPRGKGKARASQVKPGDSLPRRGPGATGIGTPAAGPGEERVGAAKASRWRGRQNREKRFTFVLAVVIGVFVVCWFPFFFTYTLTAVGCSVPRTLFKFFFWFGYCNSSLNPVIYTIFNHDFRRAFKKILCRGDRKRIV", "UniProt P41145, sequence (whole entry, looked up)": "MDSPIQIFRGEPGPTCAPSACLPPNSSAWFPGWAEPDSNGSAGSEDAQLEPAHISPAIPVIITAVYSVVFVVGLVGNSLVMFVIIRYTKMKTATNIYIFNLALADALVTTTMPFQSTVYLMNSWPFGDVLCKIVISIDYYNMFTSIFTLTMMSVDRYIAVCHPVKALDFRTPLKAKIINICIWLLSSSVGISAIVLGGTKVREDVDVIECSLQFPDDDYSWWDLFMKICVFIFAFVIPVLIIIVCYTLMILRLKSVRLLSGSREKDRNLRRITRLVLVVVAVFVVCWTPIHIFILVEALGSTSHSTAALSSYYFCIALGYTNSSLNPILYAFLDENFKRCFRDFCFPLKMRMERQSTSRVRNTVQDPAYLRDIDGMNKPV", "UniProt P23458, sequence (whole entry, looked up)": "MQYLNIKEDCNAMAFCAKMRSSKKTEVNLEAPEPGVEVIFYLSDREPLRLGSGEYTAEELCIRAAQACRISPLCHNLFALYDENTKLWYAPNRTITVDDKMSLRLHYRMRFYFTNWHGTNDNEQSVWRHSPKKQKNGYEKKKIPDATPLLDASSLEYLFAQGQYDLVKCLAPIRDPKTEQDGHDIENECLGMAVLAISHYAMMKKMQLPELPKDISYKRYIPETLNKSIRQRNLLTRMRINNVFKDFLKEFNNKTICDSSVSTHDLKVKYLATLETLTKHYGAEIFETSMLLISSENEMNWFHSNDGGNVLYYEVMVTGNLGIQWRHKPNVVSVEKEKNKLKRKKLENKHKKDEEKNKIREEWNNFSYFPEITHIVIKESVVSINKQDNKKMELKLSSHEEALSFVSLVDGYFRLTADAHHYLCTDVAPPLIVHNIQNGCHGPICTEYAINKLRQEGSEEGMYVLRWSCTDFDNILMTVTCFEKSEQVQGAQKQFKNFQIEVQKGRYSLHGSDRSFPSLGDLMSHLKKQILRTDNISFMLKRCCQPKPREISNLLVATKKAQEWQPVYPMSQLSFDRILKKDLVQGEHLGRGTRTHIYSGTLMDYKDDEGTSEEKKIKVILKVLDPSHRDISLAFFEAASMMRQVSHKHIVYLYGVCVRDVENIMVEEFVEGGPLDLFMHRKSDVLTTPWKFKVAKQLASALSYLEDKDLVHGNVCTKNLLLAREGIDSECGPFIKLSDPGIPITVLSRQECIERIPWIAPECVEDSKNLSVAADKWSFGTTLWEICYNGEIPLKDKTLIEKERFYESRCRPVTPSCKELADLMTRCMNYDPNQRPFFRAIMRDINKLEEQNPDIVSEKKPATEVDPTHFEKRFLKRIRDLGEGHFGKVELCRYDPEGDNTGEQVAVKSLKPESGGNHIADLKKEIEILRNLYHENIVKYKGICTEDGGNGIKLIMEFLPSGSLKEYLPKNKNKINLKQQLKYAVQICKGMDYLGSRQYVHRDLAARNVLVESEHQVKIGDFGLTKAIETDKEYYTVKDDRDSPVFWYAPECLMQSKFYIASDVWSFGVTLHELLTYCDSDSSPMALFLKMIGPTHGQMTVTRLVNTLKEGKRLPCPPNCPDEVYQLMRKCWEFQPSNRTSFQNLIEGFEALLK", "UniProt P41743, sequence (whole entry, looked up)": "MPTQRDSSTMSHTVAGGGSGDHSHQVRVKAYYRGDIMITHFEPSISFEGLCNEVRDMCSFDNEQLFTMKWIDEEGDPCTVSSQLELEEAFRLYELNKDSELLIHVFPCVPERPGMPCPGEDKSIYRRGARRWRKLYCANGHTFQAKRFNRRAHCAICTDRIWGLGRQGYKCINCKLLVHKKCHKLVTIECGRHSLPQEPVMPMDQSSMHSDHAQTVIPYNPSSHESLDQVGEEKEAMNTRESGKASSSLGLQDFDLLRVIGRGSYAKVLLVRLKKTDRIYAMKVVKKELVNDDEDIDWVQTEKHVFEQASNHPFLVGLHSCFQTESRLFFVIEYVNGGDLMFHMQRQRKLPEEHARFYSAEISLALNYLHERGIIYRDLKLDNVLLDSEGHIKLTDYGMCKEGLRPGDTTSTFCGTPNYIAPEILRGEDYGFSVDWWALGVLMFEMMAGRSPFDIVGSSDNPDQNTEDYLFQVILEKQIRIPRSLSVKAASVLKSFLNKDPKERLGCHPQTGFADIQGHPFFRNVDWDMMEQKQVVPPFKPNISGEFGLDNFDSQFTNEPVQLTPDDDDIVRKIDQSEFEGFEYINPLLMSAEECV"}
{"Structure (SMILES)": "Nc1c(Br)cc(Br)cc1CN[C@H]1CC[C@H](O)CC1", "target or system": "Potassium/sodium hyperpolarization-activated cyclic nucleotide-gated channel 1 (Homo sapiens, UniProt O60741)", "assay": "ion current, inhibitor", "conditions": "30 µM", "measurement": "inhibition", "result": "-0.65%"}
{"Structure (SMILES)": "CC[C@H](C)[C@H](NC(=O)[C@H](Cc1ccccc1)NC(=O)[C@H](CCC(=O)O)NC(=O)[C@H](CCCNC(=N)N)NC(=O)[C@H](C)NC(=O)[C@H](C)NC(=O)[C@H](CCC(N)=O)NC(=O)[C@H](CCC(=O)O)NC(=O)[C@H](CCC(=O)O)NC(=O)[C@H](CC(C)C)NC(=O)[C@H](Cc1ccc(O)cc1)NC(=O)[C@H](CO)NC(=O)[C@H](CO)NC(=O)[C@@H](NC(=O)[C@H](CC(=O)O)NC(=O)[C@H](CO)NC(=O)[C@@H](NC(=O)[C@H](Cc1ccccc1)NC(=O)[C@@H](NC(=O)CNC(=O)[C@H](CCC(=O)O)NC(=O)[C@H](C)NC(=O)CCc1c[nH]cn1)[C@@H](C)O)[C@@H](C)O)C(C)C)C(=O)N[C@@H](C)C(=O)N[C@@H](Cc1c[nH]c2ccccc12)C(=O)N[C@@H](CC(C)C)C(=O)N[C@H](C(=O)N[C@@H](CCCNC(=N)N)C(=O)NCC(=O)N[C@@H](CCCNC(=N)N)C(=O)N[C@@H](CCCCNC(=O)COCCOCCNC(=O)COCCOCCNC(=O)CC[C@H](NC(=O)CCCCCCCCCCCCCCCCC(=O)O)C(=O)O)C(=O)NCC(=O)NCC(=O)N[C@@H](CO)C(=O)N[C@@H](CCCCNc1c(NCCCCCN(O)C(=O)CCC(=O)NCCCCCN(O)C(=O)CCC(=O)NCCCCCN(O)C(C)=O)c(=O)c1=O)C(=O)O)C(C)C", "system": "rat, plasma", "conditions": "intravenous, 20 nmol/kg", "measurement": "Vd", "result": "0.0845 L/kg"}
{"Structure (SMILES)": "Cc1ncsc1-c1ccc([C@H](CC(=O)N2CCN(c3ccc(C#Cc4ccc(C(=O)N5CCC(n6cc(-c7ccc8c(c7)CCN8C(=O)Cc7cccc(OC(F)(F)F)c7)c7c(N)ncnc76)CC5)cc4)cn3)CC2)NC(=O)[C@@H]2C[C@@H](O)CN2C(=O)[C@@H](NC(=O)C2(F)CC2)C(C)(C)C)cc1", "target or system": "Receptor-interacting serine/threonine-protein kinase 1 (RIPK1, Homo sapiens, UniProt Q13546)", "assay": "protein level, degrader, western blot", "system": "U-937", "conditions": "0.2 µM", "measurement": "Dmax", "result": "99%"}
{"Structure (SMILES)": "C#Cc1ccc2c(c1)C(c1ccccn1)=NCc1c(-c3cnco3)ncn1-2.Cl", "system": "water", "conditions": "2 h, 37 °C", "measurement": "kinetic solubility", "result": "6820 µg/mL"}
{"Structure (SMILES)": "COc1ncccc1-c1cnn2ccc(N3CCN(C(=O)OC(C)C)CC3)nc12", "target or system": "5'-AMP-activated protein kinase catalytic subunit alpha-2 (PRKAA2, Homo sapiens, UniProt P54646)", "assay": "binding, competition with immobilised ligand", "conditions": "1 µM", "measurement": "remaining binding", "result": "93%"}
{"Structure (SMILES)": "CCCCC/C=C\\C/C=C\\C/C=C\\C/C=C\\CCCC(=O)OC(CO)CO", "target or system": "Cannabinoid receptor 2 (CNR2, Homo sapiens, UniProt P34972)", "assay": "β-arrestin recruitment, agonist", "measurement": "Emax", "result": "68%"}
{"Structure (SMILES)": "CN1CCC[C@H]1c1cccnc1", "target or system": "Alpha-2A adrenergic receptor (ADRA2A, Homo sapiens, UniProt P08913)", "assay": "ligand displacement", "conditions": "50 µM", "measurement": "inhibition", "result": "6.39%"}
{"Structure (SMILES)": "N.N.[Cl][Pt][Cl]", "target or system": "SU-DHL-4", "assay": "cell growth or viability, ATP luminescence", "conditions": "10 µM, 72 h", "measurement": "inhibition", "result": "100%"}
{"Structure (SMILES)": "[2H]c1c([2H])c([C@]2([2H])CCCN2C(=O)C(C)(C)Oc2ccc3cn[nH]c3c2)c([2H])c([2H])c1C([2H])([2H])[2H]", "target or system": "Protein kinase C iota type (PRKCI, Homo sapiens, UniProt P41743)", "assay": "binding, competition with immobilised ligand", "conditions": "1 µM", "measurement": "remaining binding", "result": "70%"}
{"Structure (SMILES)": "c1cncc([C@@H]2CCCN2)c1", "target or system": "Beta-2 adrenergic receptor (ADRB2, Homo sapiens, UniProt P07550)", "assay": "ligand displacement", "conditions": "50 µM", "measurement": "inhibition", "result": "23.6%"}
{"Structure (SMILES)": "COc1ccc(Nc2nn3c(-c4ccccc4)ccnc3c2C(=O)Nc2ccccc2)cc1", "target or system": "A549", "assay": "cell growth or viability, MTT", "conditions": "100 µg/mL, 48 h, serum-free", "measurement": "viability", "result": "21.4%"}
{"Structure (SMILES)": "CC(C)CC(=O)OC[C@H]1O[C@@](C#N)(c2ccc3c(N)ncnn23)[C@H](O)[C@@H]1O", "target or system": "D(1A) dopamine receptor (DRD1, Homo sapiens, UniProt P21728)", "assay": "cell-free assay", "conditions": "20 µM", "measurement": "inhibition", "result": "2%"}
{"Structure (SMILES)": "Cc1sc2c(c1C)C(c1ccc(Cl)cc1)=N[C@H](CC(=O)OC(C)(C)C)c1nnc(C)n1-2", "target or system": "OCI-Ly1", "assay": "cell growth or viability, ATP luminescence", "conditions": "0.5 µM, 5 days", "measurement": "viability", "result": "141%"}
{"Structure (SMILES)": "Oc1cccc(N2[C@@H]3CC[C@H]2CN(CCCc2ccccc2)C3)c1", "target or system": "Kappa-type opioid receptor (OPRK1, Homo sapiens, UniProt P41145)", "assay": "cAMP, agonist", "measurement": "Emax", "result": "0%"}
{"Structure (SMILES)": "C#Cc1n[nH]c2c(-c3cn([C@@H](C)c4ccccn4)c(=O)[nH]c3=O)cc(F)cc12", "target or system": "Tyrosine-protein kinase JAK1 (JAK1, Homo sapiens, UniProt P23458)", "assay": "enzyme activity, inhibitor", "conditions": "0.1 µM", "measurement": "inhibition", "result": "0.7%"}
{"Structure (SMILES)": "COc1ccc(Nc2nn3c(-c4ccccc4)ccnc3c2C(=O)Nc2ccc(Cl)cc2)cc1", "target or system": "Caco-2", "assay": "cell growth or viability, MTT", "conditions": "25 µg/mL, 48 h, serum-free", "measurement": "viability", "result": "29.8%"}
{"Structure (SMILES)": "Cc1nn(C)cc1-c1nc2c(N3CCN(Cc4ccc(Cl)cc4)CC3)c(Cl)cnc2[nH]1", "target or system": "Transient receptor potential cation channel subfamily M member 6 (TRPM6, Homo sapiens, UniProt Q9BX84)", "assay": "binding, competition with immobilised ligand", "conditions": "1 µM", "measurement": "remaining binding", "result": "100%"}
{"Structure (SMILES)": "Nc1ncc(-c2nc(N3CCOCC3)nc(N3CCOCC3)n2)c(C(F)F)n1", "target or system": "Activin receptor type-2A (ACVR2A, Homo sapiens, UniProt P27037)", "assay": "binding, competition with immobilised ligand", "conditions": "10 µM", "measurement": "remaining binding", "result": "100%"}
{"Structure (SMILES)": "CCN(CC)CCCC[C@H](NC(=O)[C@H](CC(C)C)NC(=O)[C@H](C)NC(=O)[C@H](Cc1ccccc1)NC(=O)c1ccc(C(C)(C)C)cc1)C(=O)N[C@@H](CO)C(=O)OC", "target or system": "Histone acetyltransferase KAT2B (KAT2B, Homo sapiens, UniProt Q92831)", "assay": "thermal stability, DSF", "conditions": "25 µM", "measurement": "ΔTm", "result": "-0.07 °C"}
